# Experimental data of several laboratories.
# Each line is one published result; not all experiments were run side by side. Several values in a cell are separate wells, animals, samples, runs or records. ± marks the error that the study gave.
# DDB1: DNA damage-binding protein 1 (DDB1, Homo sapiens, UniProt Q16531)
# Cereblon/Ikaros: Cereblon/Ikaros (Homo sapiens, UniProt Q13422+Q96SW2)
# UniProt Q96SW2, sequence (whole entry, looked up): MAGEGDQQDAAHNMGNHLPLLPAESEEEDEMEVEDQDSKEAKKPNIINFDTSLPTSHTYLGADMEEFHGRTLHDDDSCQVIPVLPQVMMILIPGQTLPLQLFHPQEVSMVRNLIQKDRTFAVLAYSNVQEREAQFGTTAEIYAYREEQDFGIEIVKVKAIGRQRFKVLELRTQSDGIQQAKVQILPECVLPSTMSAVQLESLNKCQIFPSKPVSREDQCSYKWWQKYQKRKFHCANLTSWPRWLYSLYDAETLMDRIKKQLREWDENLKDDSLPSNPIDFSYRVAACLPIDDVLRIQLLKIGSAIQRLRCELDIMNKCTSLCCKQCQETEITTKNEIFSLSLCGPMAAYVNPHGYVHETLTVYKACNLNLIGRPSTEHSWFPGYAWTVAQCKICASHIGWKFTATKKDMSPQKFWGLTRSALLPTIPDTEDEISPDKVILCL
# UniProt Q13422, sequence (whole entry, looked up): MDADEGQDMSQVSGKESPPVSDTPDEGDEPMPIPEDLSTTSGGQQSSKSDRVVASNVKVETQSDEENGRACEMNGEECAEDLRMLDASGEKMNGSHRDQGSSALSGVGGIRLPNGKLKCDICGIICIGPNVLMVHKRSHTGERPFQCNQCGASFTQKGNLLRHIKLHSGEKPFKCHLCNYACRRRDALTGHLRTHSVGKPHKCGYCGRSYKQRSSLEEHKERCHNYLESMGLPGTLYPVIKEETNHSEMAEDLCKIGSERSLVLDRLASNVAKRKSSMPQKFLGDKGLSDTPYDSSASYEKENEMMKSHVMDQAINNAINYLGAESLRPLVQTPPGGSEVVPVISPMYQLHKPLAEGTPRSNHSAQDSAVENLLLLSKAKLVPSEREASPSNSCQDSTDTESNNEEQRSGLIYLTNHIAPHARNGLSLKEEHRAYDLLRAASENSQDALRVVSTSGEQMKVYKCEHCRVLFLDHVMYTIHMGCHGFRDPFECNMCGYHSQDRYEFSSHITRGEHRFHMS
# BEST2: Bestrophin-2a (BEST2, Homo sapiens, UniProt Q8NFU1)
# UniProt Q8NFU1, sequence (whole entry, looked up): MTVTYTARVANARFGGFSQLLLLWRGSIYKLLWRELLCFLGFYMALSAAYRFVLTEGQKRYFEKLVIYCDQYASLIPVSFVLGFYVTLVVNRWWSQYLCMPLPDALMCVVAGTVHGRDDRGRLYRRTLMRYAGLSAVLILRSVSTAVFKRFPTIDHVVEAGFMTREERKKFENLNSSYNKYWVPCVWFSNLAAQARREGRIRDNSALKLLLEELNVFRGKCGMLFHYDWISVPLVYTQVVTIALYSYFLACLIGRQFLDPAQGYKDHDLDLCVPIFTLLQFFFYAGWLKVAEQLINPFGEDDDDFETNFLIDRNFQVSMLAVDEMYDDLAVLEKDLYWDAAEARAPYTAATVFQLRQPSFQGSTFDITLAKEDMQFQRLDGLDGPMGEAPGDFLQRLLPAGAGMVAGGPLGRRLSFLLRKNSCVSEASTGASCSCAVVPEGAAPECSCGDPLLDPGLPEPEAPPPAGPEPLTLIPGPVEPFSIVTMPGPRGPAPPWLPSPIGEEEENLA
# TOP2A: DNA topoisomerase 2-alpha (TOP2A, Homo sapiens, UniProt P11388)
# UniProt P11388, sequence (whole entry, looked up): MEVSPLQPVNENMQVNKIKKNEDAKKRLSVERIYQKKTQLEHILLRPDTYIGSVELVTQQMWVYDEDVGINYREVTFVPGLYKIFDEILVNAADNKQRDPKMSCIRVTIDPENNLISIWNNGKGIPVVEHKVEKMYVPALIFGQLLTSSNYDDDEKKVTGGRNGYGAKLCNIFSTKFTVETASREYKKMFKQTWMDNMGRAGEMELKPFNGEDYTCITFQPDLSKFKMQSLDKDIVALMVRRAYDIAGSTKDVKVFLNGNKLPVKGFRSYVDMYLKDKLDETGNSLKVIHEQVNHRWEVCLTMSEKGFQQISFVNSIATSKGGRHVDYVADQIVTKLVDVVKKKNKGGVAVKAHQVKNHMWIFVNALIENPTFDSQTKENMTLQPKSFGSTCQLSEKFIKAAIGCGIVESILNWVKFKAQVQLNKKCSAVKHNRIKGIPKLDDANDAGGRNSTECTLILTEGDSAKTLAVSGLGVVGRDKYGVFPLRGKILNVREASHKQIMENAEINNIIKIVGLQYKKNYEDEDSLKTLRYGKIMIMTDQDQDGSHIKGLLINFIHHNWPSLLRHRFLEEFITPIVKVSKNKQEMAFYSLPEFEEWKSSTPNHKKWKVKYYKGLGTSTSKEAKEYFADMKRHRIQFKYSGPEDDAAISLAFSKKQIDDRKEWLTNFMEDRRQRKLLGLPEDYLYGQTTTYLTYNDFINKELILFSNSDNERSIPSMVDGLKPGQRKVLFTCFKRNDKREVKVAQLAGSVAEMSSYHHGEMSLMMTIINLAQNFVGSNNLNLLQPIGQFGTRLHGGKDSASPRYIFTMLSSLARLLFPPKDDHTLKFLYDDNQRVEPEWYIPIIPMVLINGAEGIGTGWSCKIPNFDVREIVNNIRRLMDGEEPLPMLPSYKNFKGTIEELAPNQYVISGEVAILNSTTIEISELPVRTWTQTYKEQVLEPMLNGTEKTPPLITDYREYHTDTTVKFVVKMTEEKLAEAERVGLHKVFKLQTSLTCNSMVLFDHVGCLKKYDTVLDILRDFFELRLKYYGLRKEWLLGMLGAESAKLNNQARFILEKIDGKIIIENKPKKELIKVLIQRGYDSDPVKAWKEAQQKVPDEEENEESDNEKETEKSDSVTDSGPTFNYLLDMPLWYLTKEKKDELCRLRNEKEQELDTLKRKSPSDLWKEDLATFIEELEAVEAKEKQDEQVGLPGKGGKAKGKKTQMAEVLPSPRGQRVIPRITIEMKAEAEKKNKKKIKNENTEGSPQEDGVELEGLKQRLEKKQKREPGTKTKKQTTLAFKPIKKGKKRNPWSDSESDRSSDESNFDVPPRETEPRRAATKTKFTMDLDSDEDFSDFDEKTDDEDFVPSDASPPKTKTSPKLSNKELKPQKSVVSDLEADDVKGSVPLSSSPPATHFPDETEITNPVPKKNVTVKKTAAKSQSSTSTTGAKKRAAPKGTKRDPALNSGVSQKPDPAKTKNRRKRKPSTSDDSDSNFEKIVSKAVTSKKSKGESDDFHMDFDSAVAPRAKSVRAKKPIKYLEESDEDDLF
# Pteridine reductase 1: Pteridine reductase 1 (Leishmania major, UniProt Q01782)
# UniProt Q01782, sequence (whole entry, looked up): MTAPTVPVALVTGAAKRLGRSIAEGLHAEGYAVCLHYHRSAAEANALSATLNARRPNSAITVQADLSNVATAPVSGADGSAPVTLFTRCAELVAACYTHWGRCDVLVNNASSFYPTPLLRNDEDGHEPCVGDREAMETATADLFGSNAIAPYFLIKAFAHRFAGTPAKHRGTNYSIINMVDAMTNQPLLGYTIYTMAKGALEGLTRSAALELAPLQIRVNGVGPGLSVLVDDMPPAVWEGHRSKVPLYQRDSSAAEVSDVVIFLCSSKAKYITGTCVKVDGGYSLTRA
# PKN1: Serine/threonine-protein kinase N1 (PKN1, Homo sapiens, UniProt Q16512)
# UniProt Q16512, sequence (whole entry, looked up): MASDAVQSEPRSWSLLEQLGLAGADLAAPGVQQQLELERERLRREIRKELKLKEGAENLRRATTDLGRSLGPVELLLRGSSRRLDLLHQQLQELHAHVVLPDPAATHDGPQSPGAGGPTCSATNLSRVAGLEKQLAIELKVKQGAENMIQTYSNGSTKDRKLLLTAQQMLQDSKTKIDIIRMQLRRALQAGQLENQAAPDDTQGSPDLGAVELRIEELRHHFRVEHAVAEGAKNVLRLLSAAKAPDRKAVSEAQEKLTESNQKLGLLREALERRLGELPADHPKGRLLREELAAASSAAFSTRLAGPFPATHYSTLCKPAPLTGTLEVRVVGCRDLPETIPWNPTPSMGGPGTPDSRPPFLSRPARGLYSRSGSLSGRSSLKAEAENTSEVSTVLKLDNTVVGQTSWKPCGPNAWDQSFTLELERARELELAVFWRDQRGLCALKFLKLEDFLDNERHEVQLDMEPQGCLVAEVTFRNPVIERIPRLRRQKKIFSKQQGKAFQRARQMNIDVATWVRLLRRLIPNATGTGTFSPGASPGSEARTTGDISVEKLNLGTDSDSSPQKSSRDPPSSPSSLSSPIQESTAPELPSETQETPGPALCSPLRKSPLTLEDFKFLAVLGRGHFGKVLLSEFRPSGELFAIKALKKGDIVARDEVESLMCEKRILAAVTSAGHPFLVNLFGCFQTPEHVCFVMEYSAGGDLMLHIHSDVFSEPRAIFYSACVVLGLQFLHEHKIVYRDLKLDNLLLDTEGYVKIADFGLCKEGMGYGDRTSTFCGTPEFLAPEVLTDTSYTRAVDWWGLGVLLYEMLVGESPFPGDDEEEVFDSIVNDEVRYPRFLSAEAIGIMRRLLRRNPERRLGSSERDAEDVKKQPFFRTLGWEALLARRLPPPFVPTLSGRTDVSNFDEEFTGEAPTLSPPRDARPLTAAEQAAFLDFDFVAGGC
# T1: G-quadruplex RNA (Caenorhabditis elegans); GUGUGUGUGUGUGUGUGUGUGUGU
# UniProt Q9EP73, sequence (whole entry, looked up): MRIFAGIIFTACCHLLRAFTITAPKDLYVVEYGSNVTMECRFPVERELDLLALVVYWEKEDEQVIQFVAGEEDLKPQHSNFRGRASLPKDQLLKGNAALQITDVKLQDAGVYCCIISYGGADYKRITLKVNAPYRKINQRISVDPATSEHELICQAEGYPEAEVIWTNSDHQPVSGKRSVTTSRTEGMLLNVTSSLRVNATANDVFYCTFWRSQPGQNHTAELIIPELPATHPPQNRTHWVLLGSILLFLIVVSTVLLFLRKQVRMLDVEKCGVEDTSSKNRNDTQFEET
# UniProt O75030, sequence (1-296, unmodified, looked up): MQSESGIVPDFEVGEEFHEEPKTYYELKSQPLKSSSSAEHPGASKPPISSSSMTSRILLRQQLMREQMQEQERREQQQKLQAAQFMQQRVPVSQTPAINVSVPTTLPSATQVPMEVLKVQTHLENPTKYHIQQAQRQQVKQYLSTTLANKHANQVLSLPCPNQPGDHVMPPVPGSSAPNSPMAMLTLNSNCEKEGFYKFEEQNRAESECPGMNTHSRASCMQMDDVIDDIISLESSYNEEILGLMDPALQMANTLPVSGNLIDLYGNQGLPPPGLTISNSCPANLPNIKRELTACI
# UniProt Q16774, sequence (whole entry, looked up): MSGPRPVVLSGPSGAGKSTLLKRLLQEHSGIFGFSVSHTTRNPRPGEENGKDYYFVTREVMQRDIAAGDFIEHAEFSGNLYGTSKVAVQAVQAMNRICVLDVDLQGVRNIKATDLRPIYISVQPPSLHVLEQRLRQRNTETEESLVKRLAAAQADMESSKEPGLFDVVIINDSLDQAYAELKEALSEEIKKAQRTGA
Compound,target,assay,test system,setting,scale,endpoint,result
Cc1cccc(N2CC(C(=O)O)CC2=O)c1 (centres unmarked),"DNA (cytosine-5)-methyltransferase 3A, PWWP domain (DNMT3A, Homo sapiens, UniProt Q9Y6K1)","binding, affinity selection mass spectrometry",,,reference: other proteins in batch,fold enrichment,1.11
O=C(O)c1ccc(Nc2ncc3c(n2)-c2ccc(Cl)cc2C(c2c(F)cccc2F)=NC3)cc1,Lyn(m),kinase activity,,1 µM,,remaining activity,52%
CCNC(=O)/C=C/c1cccc(Br)c1,"SLC6A19 (Homo sapiens, UniProt Q695T7)","inhibitor, FLIPR membrane potential",CHO-BC cells,"10 µM, unit not given",reference: no inhibitor,remaining transport activity,0.124
CCOc1cccc(C2CC(=O)Nc3c2c(C)nn3-c2ccc3nncn3n2)c1 (centres unmarked),DDB1,"binding, surface plasmon resonance",,30 µM,,SPR response,10.8 RU
CCC(C)(NCCc1cccc(Cl)c1)c1cccc(NC2=CC(=O)N(C3CCC(=O)NC3=O)C2=O)c1 (centres unmarked),Cereblon/Ikaros,"protein degradation, degrader, HiBiT luminescence",Jurkat,,,Dmax,71%
O=c1c(OS(=O)(=O)[O-])c(-c2ccc(OS(=O)(=O)[O-])c(OS(=O)(=O)[O-])c2)oc2cc(OS(=O)(=O)[O-])cc(OCCOc3cc(-c4oc5cc(OS(=O)(=O)[O-])cc(OCCOc6cc(OS(=O)(=O)[O-])cc7oc(-c8ccc(OS(=O)(=O)[O-])c(OS(=O)(=O)[O-])c8)c(OS(=O)(=O)[O-])c(=O)c67)c5c(=O)c4OS(=O)(=O)[O-])ccc3OS(=O)(=O)[O-])c12.[Na+].[Na+].[Na+].[Na+].[Na+].[Na+].[Na+].[Na+].[Na+].[Na+].[Na+],"Neutrophil elastase (ELANE, Homo sapiens, UniProt P08246)","enzyme activity, inhibitor",,with: chromogenic substrate,,Hill slope,2.4
CC1(C)CC2(C)OC(=O)NC2(C)c2ccccc21 (centres unmarked),DDB1,"binding, affinity selection mass spectrometry",,,reference: other proteins in batch,fold enrichment,0.486
O=C(O)C1=CCNCC1,BEST2,whole-cell patch clamp,HEK293 transiently expressing channel,"concentration not given, membrane potential 60 mV",,current density,158 pA/pF and 127 pA/pF and 126 pA/pF and 38.2 pA/pF and 239 pA/pF
O=c1nc(SCc2ccc(C(F)(F)F)cc2)nc(SCc2ccc3sccc3c2)[nH]1,TOP2A,decatenation,,"31.25 µM, replicate 2",,decatenated DNA,0%
CC1(C)CCC2=C(O1)c1ccccc1C(=O)C2=O,"TGM2 (Homo sapiens, UniProt P21980)","enzyme activity, inhibitor",,with: Triton X-100 0.02%,,potency,decreased
O=c1nc(SCc2cc(F)cc(C(F)(F)F)c2)nc(SCc2nc3ccccc3[nH]2)[nH]1,TOP2A,decatenation,,"31.25 µM, replicate 1",,decatenated DNA,54.4%
Nc1nc(N)c2nc(CNc3cccc4ccccc34)cnc2n1,Pteridine reductase 1,,,hDHFR weight 10,"reference: LmPTR1, LmDHFR over hDHFR, 1.0 selective, 0.0 non-selective",partition index,0.98
COc1cccc2c(-c3ccc(CN4CCOCC4)cc3)cc(C(=O)Nc3ccc(C(=O)O)cc3)nc12,"RARB (Homo sapiens, UniProt P10826)","reporter gene, antagonist",,"up to 3300 nM, with: ATRA 4 nM (EC80)",,IC50,inactive
CCc1c(C)c2cc3nc(cc4nc(cc5c(CC)c(C)c(cc1[nH]2)n5C)C(C)=C4CCC(=O)O)C(CCC(=O)O)=C3C,"T1, G-quadruplex RNA (Caenorhabditis elegans)",X-ray crystallography,,,,binding,binds
CC(=O)N[C@H](C(=O)N1C[C@H](O)C[C@H]1C(=O)NCc1ccc(-c2scnc2C)cc1)C(C)(C)SCCCCCCNC(=O)C[C@@H]1N=C(c2ccc(Cl)cc2)c2c(sc(C)c2C)-n2c(C)nnc21,"Bromodomain-containing protein 4, BD2 (BRD4, Homo sapiens, UniProt O60885)",ITC,,"25 °C, binary",,ΔH,-9.8 ± 0.9 kcal/mol
COc1ccc(F)cc1C(=O)NCc1ccc(-c2nn([C@@H](C)C(F)(F)F)c(N)c2C(N)=O)cc1,"BTK (Homo sapiens, UniProt Q06187, C481S)",surface plasmon resonance,,,,dissociation half-life,1.5 h
C[C@@H]1C[C@H](Nc2ccccc2)c2cc(F)ccc2N1C(=O)c1ccncc1,"Ecdysone receptor (Aedes albopictus, UniProt Q9U3Y4)","ligand binding, inhibitor",intact cells,with: [3H]ponasterone A,direction not given,pIC50 Z-score,0.68
O=c1nc(SCc2cc(F)cc(C(F)(F)F)c2)nc(SCc2ccc3ccccc3n2)[nH]1,TOP2A,decatenation,,"125 µM, replicate 2",,decatenated DNA,0%
Nc1nc2c(ncn2[C@@H]2O[C@H](COP(=O)(O)O)[C@@H](O)[C@H]2O)c(=O)[nH]1,"GUK1 (Homo sapiens, UniProt Q16774)","substrate, NADH-coupled",,,,kcat,44.5 s⁻¹
CC(C)[C@H](NC(=O)c1cc(-c2cnn3cc(-c4ccc(OCCN5CCCCC5)cc4)cnc23)cs1)C(F)(F)F,PLK3 (human),radiometric kinase,,15 nM,reference: PLK3 over ULK1,relative inhibition,0.0341
O=c1nc(SCc2cc(F)cc(C(F)(F)F)c2)nc(SCc2ccc3nc(Cl)ccc3c2)[nH]1,TOP2A,"DNA cleavage, competition with etoposide",,"31.25 µM, with: etoposide 50 µM",,linear DNA,11.4% and 9.55%
c1coc(-c2n[nH]cc2-c2ccnc3ccccc23)c1,"Actin-regulating kinase PRK1 (PRK1, Candida albicans, UniProt Q5A961)","kinase binding, MIB/MS competition",Candida albicans lysate,10 µM,"reference: DMSO, negative = stronger binding",log2 fold change,-0.01
N#CCNC(=O)c1ccc(-c2ccnc(Nc3ccc(N4CCOCC4)cc3)n2)cc1,PKN1,inhibitor,,,,Hill slope,-0.623
Nc1nc(N)c2nc(C(=O)NCc3cccc(C(F)(F)F)c3)cnc2n1,Pteridine reductase 1,,,hDHFR weight 10,"reference: LmPTR1, LmDHFR over hDHFR, 1.0 selective, 0.0 non-selective",partition index,0.97
CC(=O)/N=c1/sc(S(N)(=O)=O)nn1C,"CA4 (Homo sapiens, UniProt P22748)",ITC,,"concentration not given, 25 °C",,intrinsic binding TΔS,3.11 kcal/mol
COc1cc(F)ccc1-c1ncnc(Nc2cccc(C[S@](C)(=N)=O)c2)n1,"FES (Homo sapiens, UniProt P07332)",kinase activity,,"10 µM, with: 10 µM ATP",,remaining activity,79%
Cc1nc(CSc2nc(SCc3ccc(C(F)(F)F)cc3)nc(=O)[nH]2)cs1,TOP2A,decatenation,,7.8 µM,,mean decatenated DNA,98.7%
C[C@@H]1CC=N[C@H]1C(=O)NCCCC[C@H](N)C(=O)O,"chimeric pyrrolysyl-tRNA synthetase, Methanosarcina mazei/barkeri","aminoacylation, substrate",,"pH 7.2, 10 mM MgCl2, with: ATP, tRNA(Pyl)",,Km,21.03 ± 0.15 µM
NCCCCC(=O)O,"SLC6A6 (Homo sapiens, UniProt P31641, Y138A)","binding, microscale thermophoresis",,"15.6 µM, room temperature, with: 50 nM labelled protein",higher = more binding,normalised MST signal,-0.0202
CC(C)(CNC1(c2cccc(NC3=CC(=O)N(C4CCC(=O)NC4=O)C3=O)c2)CCC1)c1ccc(C(F)(F)F)c(Cl)c1 (centres unmarked),Cereblon/Ikaros,"protein degradation, degrader, HiBiT luminescence",Jurkat,,,Dmax,70%
CC(C)OCCn1c(=S)[nH]c(=O)c2[nH]ccc21,"Myeloperoxidase (MPO, Homo sapiens, UniProt P05164)","H2O2 consumption, inhibitor, H2O2 electrode",,"0.68 µM, 0.1 s",,H2O2 concentration,-0.452 µM
c1ccc(CCCCCOCCc2ccc3c(c2)OCCN3)cc1,"ATP2A2 (Sus scrofa, UniProt P11607)","ATPase Vmax increase, activator",pig microsomes,0.1 to 50 µM,reference: vehicle,Emax,~34%
O=C(O)c1ccc(O)cc1,BEST2,whole-cell patch clamp,HEK293 transiently expressing channel,"concentration not given, membrane potential -60 mV",,current density,-67.1 pA/pF and -148 pA/pF and -79.3 pA/pF and -150 pA/pF and -160 pA/pF and -98.8 pA/pF and -194 pA/pF
O=C(O)c1cc2ccc(C#CC3(O)CCCCC3)cc2n1-c1ccccc1,"Microphthalmia-associated transcription factor, residues 1-296 (Homo sapiens, UniProt O75030)",isothermal titration calorimetry,,25 °C,,-TΔS,18.8 kcal/mol and 12.3 kcal/mol
O=C(O)c1ccc(-c2c[nH]c3ncc(-c4ccccc4)cc23)cc1C1CCCC1,PKN1,inhibitor,,,,Hill slope,-0.831
N#Cc1ccc(C[C@H](Nc2c(Nc3ccc(Br)cc3)c(=O)c2=O)C(=O)N2CCc3ccccc32)cc1,"FPR1 (Homo sapiens, UniProt P21462)","calcium mobilization, agonist",HL-60,concentration not given,,agonist activity,inactive
c1ccc(-c2n[nH]cc2-c2ccnc3ccccc23)nc1,"Mitogen-activated protein kinase MKC1 (MKC1, Candida albicans, UniProt P43068)","kinase binding, competitor, MIB/MS competition, item: MKC1",Candida albicans cell lysate,100 nM,reference: DMSO,log2 fold change,1.48
Cc1c(COc2ccc(CN3CCCCC3C(=O)O)cc2Br)cccc1-c1ccccc1 (centres unmarked),"Cd274 (Mus musculus, UniProt Q9EP73)",western blot,"mouse B16-F10 tumour, tumour","dose not given, unit not given",reference: control,protein level,1.21 and 0.699
Cc1c(COc2ccc(CN3CCCCC3C(=O)NCCCCCCC(=O)N(C)CCCC34CCC(c5ccccc53)c3ccccc34)cc2Br)cccc1-c1ccccc1 (centres unmarked),"CD274 (Homo sapiens, UniProt Q9NZQ7)","degrader, western blot",HL-60,1 µM,,degradation,23.3 ± 3.3%
CCN1CCC[C@H]1CNC(=O)c1c(O)c(Cl)cc(Cl)c1OC,"KiSS-1 receptor (KISS1R, Homo sapiens, UniProt Q969F8)","receptor activation, TANGO luminescence",,"concentration not given, unconfirmed screen",reference: vehicle control,log2 fold change,-0.696
CN(Cc1cnc2nc(N)nc(N)c2n1)c1ccc(C(=O)N[C@@H](CCC(=O)O)C(=O)O)cc1,"Proton-coupled folate transporter (Homo sapiens, UniProt Q96NT5, S250A)",,cells transfected with S250A mutant,"2 min, pH 5.5, 37 °C",,uptake,15%

# A few entries again:
Compound,target,assay,test system,setting,scale,endpoint,result
Cc1cccc(N2CC(C(=O)O)CC2=O)c1 (centres unmarked),"DNA (cytosine-5)-methyltransferase 3A, PWWP domain (DNMT3A, Homo sapiens, UniProt Q9Y6K1)","binding, affinity selection mass spectrometry",,,reference: other proteins in batch,fold enrichment,1.11
CC(=O)N[C@H](C(=O)N1C[C@H](O)C[C@H]1C(=O)NCc1ccc(-c2scnc2C)cc1)C(C)(C)SCCCCCCNC(=O)C[C@@H]1N=C(c2ccc(Cl)cc2)c2c(sc(C)c2C)-n2c(C)nnc21,"Bromodomain-containing protein 4, BD2 (BRD4, Homo sapiens, UniProt O60885)",ITC,,"25 °C, binary",,ΔH,-9.8 ± 0.9 kcal/mol
CN(Cc1cnc2nc(N)nc(N)c2n1)c1ccc(C(=O)N[C@@H](CCC(=O)O)C(=O)O)cc1,"Proton-coupled folate transporter (Homo sapiens, UniProt Q96NT5, S250A)",,cells transfected with S250A mutant,"2 min, pH 5.5, 37 °C",,uptake,15%
CC(C)[C@H](NC(=O)c1cc(-c2cnn3cc(-c4ccc(OCCN5CCCCC5)cc4)cnc23)cs1)C(F)(F)F,PLK3 (human),radiometric kinase,,15 nM,reference: PLK3 over ULK1,relative inhibition,0.0341
